Published values of several laboratories.
Numbered parts are unrelated; each lists some results of a single study. “And” joins repeats or separate records; there may be more than shown.
Chain of UniProt P53778 (whole entry, looked up): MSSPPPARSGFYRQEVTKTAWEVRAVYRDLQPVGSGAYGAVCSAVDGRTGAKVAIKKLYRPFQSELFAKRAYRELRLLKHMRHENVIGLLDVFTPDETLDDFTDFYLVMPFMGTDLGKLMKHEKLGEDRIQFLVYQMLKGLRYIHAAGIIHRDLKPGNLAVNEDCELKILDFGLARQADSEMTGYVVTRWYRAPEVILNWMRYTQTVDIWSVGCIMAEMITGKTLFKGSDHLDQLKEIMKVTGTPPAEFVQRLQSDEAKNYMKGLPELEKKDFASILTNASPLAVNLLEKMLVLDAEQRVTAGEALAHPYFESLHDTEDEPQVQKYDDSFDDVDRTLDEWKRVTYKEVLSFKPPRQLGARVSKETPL
Chain of UniProt O14965 (whole entry, looked up): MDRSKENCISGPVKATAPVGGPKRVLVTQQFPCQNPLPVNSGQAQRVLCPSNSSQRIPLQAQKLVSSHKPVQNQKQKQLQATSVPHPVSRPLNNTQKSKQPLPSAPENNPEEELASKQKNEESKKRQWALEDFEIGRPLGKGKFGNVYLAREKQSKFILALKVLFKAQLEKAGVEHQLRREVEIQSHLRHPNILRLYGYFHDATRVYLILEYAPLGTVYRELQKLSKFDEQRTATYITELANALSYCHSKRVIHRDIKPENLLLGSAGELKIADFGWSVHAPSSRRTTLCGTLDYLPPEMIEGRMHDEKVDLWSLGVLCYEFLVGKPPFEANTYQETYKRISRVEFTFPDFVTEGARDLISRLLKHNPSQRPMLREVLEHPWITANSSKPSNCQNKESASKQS
Chain of UniProt Q07912 (whole entry, looked up): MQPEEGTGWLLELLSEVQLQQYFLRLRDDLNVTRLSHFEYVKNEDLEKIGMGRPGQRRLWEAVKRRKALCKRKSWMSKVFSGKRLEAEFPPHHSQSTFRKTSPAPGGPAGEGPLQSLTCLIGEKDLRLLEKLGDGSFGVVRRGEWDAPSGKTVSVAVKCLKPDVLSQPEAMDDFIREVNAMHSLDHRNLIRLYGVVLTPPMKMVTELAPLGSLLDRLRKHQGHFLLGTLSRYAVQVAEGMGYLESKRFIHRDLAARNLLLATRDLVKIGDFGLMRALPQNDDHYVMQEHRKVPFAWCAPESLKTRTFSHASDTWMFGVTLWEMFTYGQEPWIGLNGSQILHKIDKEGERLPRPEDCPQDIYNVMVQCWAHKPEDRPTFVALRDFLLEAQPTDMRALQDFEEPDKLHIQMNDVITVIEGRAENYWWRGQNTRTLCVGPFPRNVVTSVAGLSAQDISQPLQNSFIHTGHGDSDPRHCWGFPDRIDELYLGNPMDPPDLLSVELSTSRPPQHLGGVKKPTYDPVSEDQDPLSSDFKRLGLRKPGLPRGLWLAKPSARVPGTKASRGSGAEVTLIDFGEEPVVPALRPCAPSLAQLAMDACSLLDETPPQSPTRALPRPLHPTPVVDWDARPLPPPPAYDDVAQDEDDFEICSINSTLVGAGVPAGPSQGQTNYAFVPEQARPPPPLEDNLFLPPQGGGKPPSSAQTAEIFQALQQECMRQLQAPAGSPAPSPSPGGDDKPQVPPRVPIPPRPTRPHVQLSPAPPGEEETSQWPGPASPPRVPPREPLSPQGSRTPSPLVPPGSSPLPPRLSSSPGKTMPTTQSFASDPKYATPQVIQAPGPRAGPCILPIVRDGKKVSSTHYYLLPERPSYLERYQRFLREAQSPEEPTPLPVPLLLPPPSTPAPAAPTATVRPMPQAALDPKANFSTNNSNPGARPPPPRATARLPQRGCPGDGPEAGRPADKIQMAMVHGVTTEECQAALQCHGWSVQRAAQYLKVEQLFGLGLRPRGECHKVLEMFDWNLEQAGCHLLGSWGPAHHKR
Chain of UniProt P53355 (whole entry, looked up): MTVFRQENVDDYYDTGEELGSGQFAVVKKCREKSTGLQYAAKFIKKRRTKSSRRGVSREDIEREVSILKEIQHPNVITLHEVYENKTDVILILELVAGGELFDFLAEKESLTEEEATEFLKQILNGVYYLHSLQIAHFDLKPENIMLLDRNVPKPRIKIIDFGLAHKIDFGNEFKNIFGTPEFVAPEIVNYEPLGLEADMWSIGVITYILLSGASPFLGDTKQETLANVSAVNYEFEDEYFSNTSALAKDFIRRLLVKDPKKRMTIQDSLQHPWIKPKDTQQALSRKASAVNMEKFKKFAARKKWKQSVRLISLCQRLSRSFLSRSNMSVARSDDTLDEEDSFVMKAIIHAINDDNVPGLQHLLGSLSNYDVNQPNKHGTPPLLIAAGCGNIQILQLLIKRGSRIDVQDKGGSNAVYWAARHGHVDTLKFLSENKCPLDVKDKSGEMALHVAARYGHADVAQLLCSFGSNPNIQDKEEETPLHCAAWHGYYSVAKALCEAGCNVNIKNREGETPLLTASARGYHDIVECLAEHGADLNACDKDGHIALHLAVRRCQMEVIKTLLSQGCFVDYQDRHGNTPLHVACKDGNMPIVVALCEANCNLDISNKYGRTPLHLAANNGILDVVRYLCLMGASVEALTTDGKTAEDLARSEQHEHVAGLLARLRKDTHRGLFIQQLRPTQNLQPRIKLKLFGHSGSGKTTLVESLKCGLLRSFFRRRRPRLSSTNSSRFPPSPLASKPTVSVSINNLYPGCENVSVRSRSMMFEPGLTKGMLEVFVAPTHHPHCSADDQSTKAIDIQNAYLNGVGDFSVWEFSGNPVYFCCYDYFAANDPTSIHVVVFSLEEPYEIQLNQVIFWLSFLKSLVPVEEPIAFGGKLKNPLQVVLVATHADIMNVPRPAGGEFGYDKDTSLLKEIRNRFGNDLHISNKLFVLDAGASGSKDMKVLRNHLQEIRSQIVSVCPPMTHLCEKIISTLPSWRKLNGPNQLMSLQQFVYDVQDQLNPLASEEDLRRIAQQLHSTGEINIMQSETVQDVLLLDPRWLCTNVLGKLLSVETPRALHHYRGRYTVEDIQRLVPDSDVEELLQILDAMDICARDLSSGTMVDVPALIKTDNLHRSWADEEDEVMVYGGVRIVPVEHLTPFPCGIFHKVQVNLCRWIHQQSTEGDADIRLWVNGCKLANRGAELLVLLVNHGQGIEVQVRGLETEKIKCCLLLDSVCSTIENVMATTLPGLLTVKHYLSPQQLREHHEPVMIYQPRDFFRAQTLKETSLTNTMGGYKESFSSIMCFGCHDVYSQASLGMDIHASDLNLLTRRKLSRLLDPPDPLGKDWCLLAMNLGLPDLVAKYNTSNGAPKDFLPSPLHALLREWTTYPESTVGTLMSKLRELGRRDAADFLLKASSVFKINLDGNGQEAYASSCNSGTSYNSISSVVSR
Chain of UniProt P68400 (whole entry, looked up): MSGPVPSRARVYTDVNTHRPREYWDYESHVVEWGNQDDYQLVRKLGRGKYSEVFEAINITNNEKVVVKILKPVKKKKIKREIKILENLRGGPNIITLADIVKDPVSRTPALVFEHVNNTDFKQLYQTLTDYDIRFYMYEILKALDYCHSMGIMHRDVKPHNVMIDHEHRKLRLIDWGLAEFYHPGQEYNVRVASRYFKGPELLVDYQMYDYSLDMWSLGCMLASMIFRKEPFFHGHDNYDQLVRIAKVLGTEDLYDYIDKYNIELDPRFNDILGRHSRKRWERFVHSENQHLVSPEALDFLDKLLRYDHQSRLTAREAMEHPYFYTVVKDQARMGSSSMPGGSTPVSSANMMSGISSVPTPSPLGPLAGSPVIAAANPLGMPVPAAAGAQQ
Chain of UniProt Q9BQI3 (whole entry, looked up): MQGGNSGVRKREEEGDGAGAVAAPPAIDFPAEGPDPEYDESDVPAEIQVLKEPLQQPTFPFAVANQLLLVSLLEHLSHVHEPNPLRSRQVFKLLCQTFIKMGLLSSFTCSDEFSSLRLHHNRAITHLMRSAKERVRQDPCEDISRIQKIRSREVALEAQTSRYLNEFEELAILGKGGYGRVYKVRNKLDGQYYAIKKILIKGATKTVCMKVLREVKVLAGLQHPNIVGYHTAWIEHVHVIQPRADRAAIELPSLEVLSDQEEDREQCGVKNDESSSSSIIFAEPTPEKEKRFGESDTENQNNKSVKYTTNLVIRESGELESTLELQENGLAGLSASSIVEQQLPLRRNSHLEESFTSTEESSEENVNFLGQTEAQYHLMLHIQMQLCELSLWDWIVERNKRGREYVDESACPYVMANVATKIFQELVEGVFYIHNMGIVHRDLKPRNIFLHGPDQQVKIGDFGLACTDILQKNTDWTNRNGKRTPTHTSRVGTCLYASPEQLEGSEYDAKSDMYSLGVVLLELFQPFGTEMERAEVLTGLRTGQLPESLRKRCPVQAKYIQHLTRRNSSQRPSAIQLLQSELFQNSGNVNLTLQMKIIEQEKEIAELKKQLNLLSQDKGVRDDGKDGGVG

Series 1 — cell line: L929; read-out: caspase activity; method: Ac-DEVD-pNA absorbance; direction: higher = more activity; measurement: caspase-3 activity
Compound: CC(C)S(=O)(=O)c1ccc2nccc(Nc3ccc4scnc4c3)c2c1
5 µM, 3 h: 0.101 a.u. and 0.104 a.u. and 0.172 a.u. and 0.111 a.u.
10 µM, 0 h: 0.007 a.u. and 0.0075 a.u. and 0.019 a.u. and 0.011 a.u. and 0.015 a.u.
5 µM, 1 h: 0.012 a.u. and 0.0065 a.u. and 0.016 a.u. and 0.029 a.u.

Series 2 — read-out: enzyme activity; action: inhibitor; concentration: 10 µM; measurement: inhibition
Target: Calcium/calmodulin-dependent protein kinase type II subunit alpha (CAMK2A, Homo sapiens, UniProt Q9UQM7)
Chain of UniProt Q9UQM7 (whole entry, looked up): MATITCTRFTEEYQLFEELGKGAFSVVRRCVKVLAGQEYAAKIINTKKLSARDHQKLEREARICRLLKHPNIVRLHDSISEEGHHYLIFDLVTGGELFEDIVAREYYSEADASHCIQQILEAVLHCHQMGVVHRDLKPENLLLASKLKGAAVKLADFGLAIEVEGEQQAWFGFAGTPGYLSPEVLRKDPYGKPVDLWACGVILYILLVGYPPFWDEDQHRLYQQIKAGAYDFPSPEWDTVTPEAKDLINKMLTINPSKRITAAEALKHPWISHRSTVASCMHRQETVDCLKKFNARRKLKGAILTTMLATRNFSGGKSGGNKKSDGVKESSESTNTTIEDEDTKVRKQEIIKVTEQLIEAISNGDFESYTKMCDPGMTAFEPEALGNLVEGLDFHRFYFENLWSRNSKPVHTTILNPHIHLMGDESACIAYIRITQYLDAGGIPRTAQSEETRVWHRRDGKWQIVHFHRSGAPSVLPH
COC(=O)[C@@]12OC[C@]34[C@H]([C@@H](O)[C@@H]1O)[C@@]1(C)CC(=O)C(O)=C(C)[C@@H]1C[C@H]3OC(=O)[C@H](OC(=O)C=C(C)C)[C@@H]24: -19%
CCCc1nc(C)c2c(=O)nc(-c3cc(S(=O)(=O)N4CCN(CC)CC4)ccc3OCC)[nH]n12: 0%
CCCCCCCCCC(O)CC(=O)O (stereo not drawn): 14%
COc1cc(C)ccc1O: -70%
O=c1ccc2ccc(OCCCCN3CCN(c4cccc5sccc45)CC3)cc2[nH]1: -16%
N[C@H](Cc1ccccc1)C(=O)O: -10%
O=c1c2ccccc2[nH]c2ccccc12: -31%

Series 3 — read-out: enzyme activity; action: inhibitor; concentration: 0.5 µM; baseline: control; measurement: remaining activity
Target: Cyclin-dependent kinase 1, with cyclin B (CDK1, Homo sapiens, UniProt P06493)
Chain of UniProt P06493 (whole entry, looked up): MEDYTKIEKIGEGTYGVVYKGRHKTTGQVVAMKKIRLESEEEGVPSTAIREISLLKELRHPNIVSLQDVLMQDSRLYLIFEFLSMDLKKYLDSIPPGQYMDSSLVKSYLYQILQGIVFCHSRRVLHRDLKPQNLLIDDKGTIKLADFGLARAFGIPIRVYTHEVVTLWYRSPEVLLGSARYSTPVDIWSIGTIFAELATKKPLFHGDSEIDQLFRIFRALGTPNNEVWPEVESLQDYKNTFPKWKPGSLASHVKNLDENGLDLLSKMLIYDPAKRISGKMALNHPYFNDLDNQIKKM
Cn1sc(=O)n(Cc2ccccc2)c1=O: 95.7%
Cc1ccc(Nc2nccc(N(C)c3ccc4c(C)n(C)nc4c3)n2)cc1S(N)(=O)=O: 99.6%
OCC(O)CCON=C1C(c2c(O)[nH]c3ccccc23)=Nc2ccccc21 (stereo not drawn): 33.4%
Nc1[nH]nc2nc3ccccc3nc12: 79.6%
O=C1NC(=O)C(c2cn(CCCO)c3ncccc23)=C1c1cnccn1: 81.1%
N#CC(C#N)=C(N)/C(C#N)=C/c1ccc(O)cc1: 111%
COc1cc2ncnc(Nc3ccc(Oc4ccccc4)cc3)c2cc1OC: 81.2%
Cc1ccc(NC(=O)c2ccc(CN3CCN(C)CC3)cc2)cc1Nc1nc(-c2cccnc2)cs1: 97.6%
CO[C@H]1C[C@@H]2CC[C@@H](C)[C@@](O)(O2)C(=O)C(=O)N2CCCC[C@H]2C(=O)O[C@H]([C@H](C)C[C@@H]2CC[C@@H](O)[C@H](OC)C2)CC(=O)[C@H](C)/C=C(\C)[C@@H](O)[C@@H](OC)C(=O)[C@H](C)C[C@H](C)/C=C/C=C/C=C/1C: 103%
CCOC(=O)c1c(C)[nH]c(/C=C2\C(=O)Nc3ccccc32)c1C: 100%
O=C(Nc1cccc(Nc2cc(Nc3cccc(C(F)(F)F)c3)ncn2)c1)C1CC1: 96.4%
O=S(=O)(c1cccc2cnccc12)N1CCCNCC1: 92.7%
CNC(=O)c1cc(Oc2ccc(NC(=O)Nc3ccc(Cl)c(C(F)(F)F)c3)cc2)ccn1: 98.5%
O=C(O)c1ccc2c3c1cccc3c(=O)n1c3ccccc3nc21: 65%
Cn1c2ccccc2c2c3c(c4c5ccccc5n(CCC#N)c4c21)CNC3=O: 38.7%

Series 4 — read-out: cell-free assay; method: competition with immobilised ligand; concentration: 0.1 µM; measurement: remaining binding
Compound: O=C(NCCCC1CCCCC1)c1ccc(CNC(=O)c2cnn(-c3ccccc3)c2C(F)(F)F)cc1
Aurora kinase A (AURKA, Homo sapiens, UniProt O14965): 100%
Casein kinase II subunit alpha (CSNK2A1, Homo sapiens, UniProt P68400): 94%
Epidermal growth factor receptor (EGFR, Homo sapiens, UniProt P00533): 100%
Eukaryotic translation initiation factor 2-alpha kinase 1 (EIF2AK1, Homo sapiens, UniProt Q9BQI3): 95%
Mitogen-activated protein kinase 12 (MAPK12, Homo sapiens, UniProt P53778): 100%
Activated CDC42 kinase 1 (TNK2, Homo sapiens, UniProt Q07912): 100%
Death-associated protein kinase 1 (DAPK1, Homo sapiens, UniProt P53355): 100%

Single results of other studies
CC(=O)N[C@@H](Cc1c[nH]c2ccccc12)C(=O)N[C@@H](CCC(=O)C=[N+]=[N-])C(=O)OC(C)C — riboflavin level (UPLC-MS/MS; EL4 tumor, C57BL/6 CES1-/- mice, tumor; subcutaneous, 0.3 mg/kg DON equivalent daily, 5 days; higher = more metabolite): 364000 a.u. and 377000 a.u. and 450000 a.u. and 300000 a.u. and 125000 a.u. and 400000 a.u.

Excerpt of the above (series 2):
O=c1c2ccccc2[nH]c2ccccc12: -31%
CCCc1nc(C)c2c(=O)nc(-c3cc(S(=O)(=O)N4CCN(CC)CC4)ccc3OCC)[nH]n12: 0%
O=c1ccc2ccc(OCCCCN3CCN(c4cccc5sccc45)CC3)cc2[nH]1: -16%
COC(=O)[C@@]12OC[C@]34[C@H]([C@@H](O)[C@@H]1O)[C@@]1(C)CC(=O)C(O)=C(C)[C@@H]1C[C@H]3OC(=O)[C@H](OC(=O)C=C(C)C)[C@@H]24: -19%
N[C@H](Cc1ccccc1)C(=O)O: -10%
